Results gathered from unrelated publications.
Lines come from different studies, so protocols differ. ± marks the error that the study gave.
Cell line: SH-SY5Y

For `Nc1ccc(Nc2c(NC3CCN(Cc4ccccc4)CC3)c(=O)c2=O)cc1`, “intracellular ROS level” read “decreased” (DCFH-DA flow cytometry; 12.5 µM, 24 h, with: H2O2 850 µM for 4 h; reference: H2O2-treated cells).
With `Cc1ccc(Nc2c3c(nc4ccccc24)CCCC3)cc1` the viability was 25.8 ± 1.25% (MTT; 50 µM, 1 h pretreatment, 10% FBS, with: H2O2).
`O=C1C=C(OCCCCn2cc(CNc3ccc4nccnc4c3)nn2)C(=O)c2ccccc21` gave a GI50 of 93.2 µM (cell growth or viability, SRB; 48 h).
`CC1CCc2nc3ccccc3c(Nc3ccc4ccccc4n3)c2C1` (stereo not drawn) gave a viability of 59.5 ± 2.56% (MTT; 50 µM, 1 h pretreatment, 10% FBS, with: H2O2).
With `O=c1c(Nc2ccc(Br)cc2)c(NC2CCN(Cc3ccccc3)CC2)c1=O` the cell survival was 50.5% (neuroprotection, MTT; 12.5 µM, 24 h pretreatment, with: H2O2 650 µM for 4 h).
For `O=C(c1ccc(Nc2c3c(nc4ccccc24)CCCC3)cc1)C1CC1`, the viability was 59.8 ± 2.58% (MTT; 50 µM, 1 h pretreatment, 10% FBS, with: H2O2).
`COCCN1COc2c(cc3c4c(c(=O)oc3c2C)CCC4)C1` has a neuroprotection of 20 ± 0.061% (MTT; 25 µM, with: L-glutamate 100 µM).
`COc1ccnc(Nc2c3c(nc4ccccc24)CCCC3)c1` gave a viability of 63.2 ± 2.93% (MTT; 50 µM, 1 h pretreatment, 10% FBS, with: H2O2).
`O=C1C=C(OCCCn2cc(CNc3ccc4nccnc4c3)nn2)C(=O)c2ccccc21` gave a GI50 of 94 µM (cell growth or viability, SRB; 48 h).
`Cc1ccc(CCNc2c(NC3CCN(Cc4ccccc4)CC3)c(=O)c2=O)cc1` has a cell survival of 58.7% (neuroprotection, MTT; 12.5 µM, 24 h pretreatment, with: H2O2 650 µM for 4 h).
The neuroprotection of `O=c1oc2c(CNCCc3cccc(F)c3)c(O)ccc2c2c1CCC2` is reported as 18.2 ± 0.086% (MTT; 25 µM, with: L-glutamate 100 µM).
`O=c1c(NCc2ccc(O)cc2)c(NC2CCN(Cc3ccccc3)CC2)c1=O` gave a cell survival of 59.6% (neuroprotection, MTT; 12.5 µM, 24 h pretreatment, with: H2O2 650 µM for 4 h).
For `Cc1nc2ccc(NCc3cn(CCCCOC4=CC(=O)c5ccccc5C4=O)nn3)cc2nc1C`, the GI50 was 42.6 µM (cell growth or viability, SRB; 48 h).
Under “cell survival reduction”, `CCCn1nnc2c(NCc3ccc(C)s3)nc(N[C@H](CC)CO)nc21` is recorded as roughly 50% (MTS; 100 µM, 24 h).
With `Cc1cccnc1Nc1c2c(nc3ccccc13)CCC(C)C2` (stereo not drawn) the viability was 57 ± 2.66% (MTT; 50 µM, 1 h pretreatment, 10% FBS, with: H2O2).
With `O=C1C=C(OCCCCCCCCn2cc(CNc3ccc4nccnc4c3)nn2)C(=O)c2ccccc21` the GI50 was greater than 100 µM (cell growth or viability, SRB; 48 h).
For `Fc1ccc(Nc2c3c(nc4ccccc24)CCCC3)cc1`, the viability was 50.5 ± 4.32% (MTT; 50 µM, 1 h pretreatment, 10% FBS, with: H2O2).
The cell survival of `O=c1c(Nc2ccc(O)cc2)c(NC2CCN(Cc3ccccc3)CC2)c1=O` is reported as 70.2% (neuroprotection, MTT; 12.5 µM, 24 h pretreatment, with: H2O2 650 µM for 4 h).
